Measurements pooled from the literature.
Numbered parts are unrelated; each lists some results of a single study. “And” joins repeats or separate records; there may be more than shown.
Chain of UniProt Q12851 (whole entry, looked up): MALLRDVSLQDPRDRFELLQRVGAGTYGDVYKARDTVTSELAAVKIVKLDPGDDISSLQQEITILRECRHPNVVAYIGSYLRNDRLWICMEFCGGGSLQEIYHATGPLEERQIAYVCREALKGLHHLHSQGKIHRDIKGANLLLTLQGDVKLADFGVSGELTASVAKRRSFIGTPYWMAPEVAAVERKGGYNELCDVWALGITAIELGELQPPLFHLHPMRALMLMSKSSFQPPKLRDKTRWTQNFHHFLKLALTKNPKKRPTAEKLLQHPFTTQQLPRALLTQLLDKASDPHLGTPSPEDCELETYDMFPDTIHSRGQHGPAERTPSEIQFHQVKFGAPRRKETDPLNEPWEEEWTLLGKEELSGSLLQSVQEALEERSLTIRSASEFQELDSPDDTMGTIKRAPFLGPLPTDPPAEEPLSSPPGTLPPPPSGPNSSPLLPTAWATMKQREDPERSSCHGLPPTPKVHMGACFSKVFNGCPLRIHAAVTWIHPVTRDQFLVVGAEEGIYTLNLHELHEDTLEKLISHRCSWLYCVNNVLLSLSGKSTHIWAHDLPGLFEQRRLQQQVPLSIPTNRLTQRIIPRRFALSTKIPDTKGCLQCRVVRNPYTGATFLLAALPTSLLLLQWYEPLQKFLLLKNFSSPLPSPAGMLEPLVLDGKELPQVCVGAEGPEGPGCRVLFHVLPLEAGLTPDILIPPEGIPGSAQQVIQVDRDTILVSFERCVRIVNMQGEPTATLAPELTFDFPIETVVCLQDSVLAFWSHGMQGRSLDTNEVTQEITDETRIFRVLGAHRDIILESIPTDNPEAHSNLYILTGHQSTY
Chain of UniProt O75676 (whole entry, looked up): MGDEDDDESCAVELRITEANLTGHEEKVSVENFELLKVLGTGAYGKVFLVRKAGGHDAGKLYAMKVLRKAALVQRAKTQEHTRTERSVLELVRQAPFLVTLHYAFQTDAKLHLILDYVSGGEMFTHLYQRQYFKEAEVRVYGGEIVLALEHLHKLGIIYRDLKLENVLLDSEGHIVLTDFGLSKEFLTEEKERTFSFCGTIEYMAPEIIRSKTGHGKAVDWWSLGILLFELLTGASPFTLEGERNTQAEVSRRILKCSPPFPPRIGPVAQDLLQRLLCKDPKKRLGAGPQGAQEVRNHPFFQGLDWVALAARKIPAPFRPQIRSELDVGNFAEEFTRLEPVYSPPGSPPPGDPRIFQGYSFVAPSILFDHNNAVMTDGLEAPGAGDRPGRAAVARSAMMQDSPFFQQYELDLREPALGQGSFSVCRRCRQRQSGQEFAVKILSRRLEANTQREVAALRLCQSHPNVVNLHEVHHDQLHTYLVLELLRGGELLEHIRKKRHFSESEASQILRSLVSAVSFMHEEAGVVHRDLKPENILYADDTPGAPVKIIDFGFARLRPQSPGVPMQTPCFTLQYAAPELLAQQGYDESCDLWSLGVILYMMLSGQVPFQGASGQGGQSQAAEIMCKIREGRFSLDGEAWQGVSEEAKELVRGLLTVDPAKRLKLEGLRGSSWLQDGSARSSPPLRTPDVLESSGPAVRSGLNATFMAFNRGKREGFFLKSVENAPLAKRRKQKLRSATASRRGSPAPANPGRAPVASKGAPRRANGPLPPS
Chain of UniProt Q9UQB9 (whole entry, looked up): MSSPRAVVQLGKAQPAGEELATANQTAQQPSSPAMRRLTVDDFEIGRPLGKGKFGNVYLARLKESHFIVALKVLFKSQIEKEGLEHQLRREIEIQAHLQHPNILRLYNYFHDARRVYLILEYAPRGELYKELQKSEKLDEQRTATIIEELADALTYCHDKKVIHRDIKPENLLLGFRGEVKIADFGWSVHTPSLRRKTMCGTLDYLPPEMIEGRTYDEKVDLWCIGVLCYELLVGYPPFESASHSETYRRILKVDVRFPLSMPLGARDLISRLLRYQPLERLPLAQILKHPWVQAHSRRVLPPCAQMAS
Chain of UniProt P49841 (whole entry, looked up): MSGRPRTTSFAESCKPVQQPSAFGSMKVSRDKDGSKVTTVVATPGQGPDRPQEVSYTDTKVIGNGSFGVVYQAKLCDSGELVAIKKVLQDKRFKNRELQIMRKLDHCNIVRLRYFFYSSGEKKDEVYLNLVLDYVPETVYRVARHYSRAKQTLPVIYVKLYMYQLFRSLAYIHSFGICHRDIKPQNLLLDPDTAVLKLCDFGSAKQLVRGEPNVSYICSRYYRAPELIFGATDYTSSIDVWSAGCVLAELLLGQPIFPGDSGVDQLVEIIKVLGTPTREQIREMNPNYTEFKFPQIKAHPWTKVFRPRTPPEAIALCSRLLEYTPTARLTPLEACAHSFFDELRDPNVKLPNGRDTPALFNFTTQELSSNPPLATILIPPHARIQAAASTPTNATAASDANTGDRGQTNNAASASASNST
Chain of UniProt P10398 (whole entry, looked up): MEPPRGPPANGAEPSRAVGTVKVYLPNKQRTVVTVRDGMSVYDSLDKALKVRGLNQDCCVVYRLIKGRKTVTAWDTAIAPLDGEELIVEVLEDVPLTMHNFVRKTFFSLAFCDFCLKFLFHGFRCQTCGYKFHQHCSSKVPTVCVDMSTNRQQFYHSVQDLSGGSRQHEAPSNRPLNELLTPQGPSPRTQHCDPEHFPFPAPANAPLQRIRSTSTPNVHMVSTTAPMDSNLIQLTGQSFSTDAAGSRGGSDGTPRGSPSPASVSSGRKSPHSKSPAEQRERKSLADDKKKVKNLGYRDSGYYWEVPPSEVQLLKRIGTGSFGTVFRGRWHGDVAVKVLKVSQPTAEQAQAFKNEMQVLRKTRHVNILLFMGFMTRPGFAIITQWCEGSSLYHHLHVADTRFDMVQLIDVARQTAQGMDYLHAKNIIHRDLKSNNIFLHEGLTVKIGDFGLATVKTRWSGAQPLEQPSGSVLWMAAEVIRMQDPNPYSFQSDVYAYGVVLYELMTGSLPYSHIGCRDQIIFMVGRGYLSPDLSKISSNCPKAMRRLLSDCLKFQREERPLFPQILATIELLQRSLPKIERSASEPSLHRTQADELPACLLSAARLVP
Chain of UniProt Q9UK32 (whole entry, looked up): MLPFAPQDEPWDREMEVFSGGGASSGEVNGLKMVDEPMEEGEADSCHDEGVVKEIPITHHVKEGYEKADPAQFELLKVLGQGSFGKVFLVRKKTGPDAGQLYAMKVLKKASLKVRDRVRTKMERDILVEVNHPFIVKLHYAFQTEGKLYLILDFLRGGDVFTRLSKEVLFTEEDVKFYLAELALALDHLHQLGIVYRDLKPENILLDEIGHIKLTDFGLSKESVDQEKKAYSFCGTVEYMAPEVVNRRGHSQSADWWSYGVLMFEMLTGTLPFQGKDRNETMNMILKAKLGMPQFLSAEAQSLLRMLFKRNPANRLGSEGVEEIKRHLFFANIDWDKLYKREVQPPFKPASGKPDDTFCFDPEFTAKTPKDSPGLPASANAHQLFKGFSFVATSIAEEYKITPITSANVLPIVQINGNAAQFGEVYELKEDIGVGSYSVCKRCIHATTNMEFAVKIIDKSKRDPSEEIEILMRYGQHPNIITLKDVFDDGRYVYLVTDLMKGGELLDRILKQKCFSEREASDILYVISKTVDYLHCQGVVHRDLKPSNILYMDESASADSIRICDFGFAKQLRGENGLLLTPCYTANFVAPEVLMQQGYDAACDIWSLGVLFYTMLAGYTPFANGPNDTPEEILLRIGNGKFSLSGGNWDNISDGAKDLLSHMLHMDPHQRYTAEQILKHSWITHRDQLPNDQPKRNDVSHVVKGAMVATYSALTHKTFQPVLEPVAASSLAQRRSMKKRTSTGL
Chain of UniProt P52333 (whole entry, looked up): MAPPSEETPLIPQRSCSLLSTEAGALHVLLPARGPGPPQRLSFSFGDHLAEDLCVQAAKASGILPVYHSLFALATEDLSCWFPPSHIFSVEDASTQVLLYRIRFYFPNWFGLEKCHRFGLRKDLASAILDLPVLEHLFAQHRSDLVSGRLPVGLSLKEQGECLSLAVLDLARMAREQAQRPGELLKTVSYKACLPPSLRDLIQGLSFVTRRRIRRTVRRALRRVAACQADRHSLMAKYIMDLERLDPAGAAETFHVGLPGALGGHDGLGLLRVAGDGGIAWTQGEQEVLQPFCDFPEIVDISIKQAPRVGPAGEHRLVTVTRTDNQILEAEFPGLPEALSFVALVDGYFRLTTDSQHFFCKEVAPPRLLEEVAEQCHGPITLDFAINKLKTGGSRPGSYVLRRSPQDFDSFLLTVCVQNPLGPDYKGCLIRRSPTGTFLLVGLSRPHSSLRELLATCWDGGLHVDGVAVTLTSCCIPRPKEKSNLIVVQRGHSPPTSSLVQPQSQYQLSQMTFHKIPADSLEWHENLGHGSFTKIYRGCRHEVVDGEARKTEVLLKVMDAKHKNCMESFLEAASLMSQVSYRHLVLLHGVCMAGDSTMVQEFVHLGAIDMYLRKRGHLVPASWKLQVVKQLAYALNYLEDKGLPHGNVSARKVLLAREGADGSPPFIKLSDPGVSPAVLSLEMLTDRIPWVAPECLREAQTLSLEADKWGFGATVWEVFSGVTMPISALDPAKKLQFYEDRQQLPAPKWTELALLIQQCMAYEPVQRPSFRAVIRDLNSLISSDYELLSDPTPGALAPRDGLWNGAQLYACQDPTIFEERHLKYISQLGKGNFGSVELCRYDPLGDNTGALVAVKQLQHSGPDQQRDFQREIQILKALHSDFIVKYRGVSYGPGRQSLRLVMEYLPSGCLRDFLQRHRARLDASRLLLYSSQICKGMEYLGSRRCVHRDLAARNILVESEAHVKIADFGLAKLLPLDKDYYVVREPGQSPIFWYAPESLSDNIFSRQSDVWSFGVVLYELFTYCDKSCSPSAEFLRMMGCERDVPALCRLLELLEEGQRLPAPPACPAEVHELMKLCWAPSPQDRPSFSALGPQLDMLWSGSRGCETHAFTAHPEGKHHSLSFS

Series 1 — technique: phase 2a trial; species: idiopathic pulmonary fibrosis patients
Compound: CC(C)n1cnc(-c2ccc(F)cc2)c1-c1ncc(C(=O)Nc2ccc(N3CCN(C)CC3)cc2)[nH]1
It gave 0% for “patients with abdominal discomfort” (30 mg once daily, adverse event grade 4).
For 30 mg once daily, adverse event grade 3: “patients with abdominal discomfort” read 0%.
60 mg once daily, adverse event grade 4 — “patients with abdominal discomfort”: 0%.
The “patients with abdominal discomfort” was 0% (30 mg once daily, adverse event grade 5).
It gave 0% for “patients with abdominal discomfort” (60 mg once daily, adverse event grade 3).
The “patients with abdominal discomfort” was 0% (30 mg once daily, adverse event grade 2).

Series 2 — cell line: mouse MPNST tumor cells; technique: high-content nuclear imaging; refers to: cell number; tested at: 10 µM; time: 12 h; notes: mean of 2 replicates; reference: plate mean; direction: higher = more cells
For `CCN(CC)CCNC(=O)c1cc(S(C)(=O)=O)ccc1OC`, the nuclei count was 0.589 z-score.
`CC(=O)OC(C)C[N+](C)(C)C` (stereo not drawn) has a nuclei count of 1.48 z-score.
`O=S(=O)(O)CCS` gave a nuclei count of 2.23 z-score.
For `O=C(O)c1ccccc1NC(=O)N1CCC(c2ccccc2C(F)(F)F)CC1`, the nuclei count was 1.4 z-score.
For `O=c1oc2ccccc2c(O)c1Cc1c(O)c2ccccc2oc1=O`, the nuclei count was 0.127 z-score.
With `Cc1ccc2c(=O)c3cccc(CC(=O)O)c3oc2c1C` the nuclei count was 0.708 z-score.
`O=C(NCCN1CCOCC1)c1ccc(Cl)cc1` gave a nuclei count of -0.326 z-score and 0.999 z-score.
With `Nc1ncn([C@H]2C[C@H](O)[C@@H](CO)O2)c(=O)n1` the nuclei count was 0.0764 z-score.

Series 3 — observed: enzyme activity; mode: inhibitor; tested at: 0.5 µM; reference: control
Structure (SMILES): Cc1cccc(-c2[nH]c(C(C)(C)C)nc2-c2ccc3c(c2)OCO3)n1
For MAP3K14 (Homo sapiens, UniProt Q99558): remaining activity read 109%.
NEK6 (Homo sapiens, UniProt Q9HC98) — remaining activity: 109%.
The remaining activity was 95.2% (TEK (Homo sapiens, UniProt Q02763)).
TAOK2 (Homo sapiens, UniProt Q9UL54) — remaining activity: 87.6%.
The remaining activity was 96.8% (GSK3B (Homo sapiens, UniProt P49841)).
TBK1 (Homo sapiens, UniProt Q9UHD2) — remaining activity: 91.9%.
For ARAF (Homo sapiens, UniProt P10398): remaining activity read 99.2%.
The remaining activity was 111% (MAPK3 (Homo sapiens, UniProt P27361)).
For MAPKAPK2 (Homo sapiens, UniProt P49137): remaining activity read 103%.
The remaining activity was 97.9% (LCK (Homo sapiens, UniProt P06239)).
FGFR1 (Homo sapiens, UniProt P11362) — remaining activity: 90.8%.
The remaining activity was 92.6% (JAK3 (Homo sapiens, UniProt P52333)).
It gave 80.4% for remaining activity (ULK3 (Homo sapiens, UniProt Q6PHR2)).
The remaining activity was 98.8% (FRK (Homo sapiens, UniProt P42685)).
It gave 104% for remaining activity (CSNK1G2 (Homo sapiens, UniProt P78368)).

Series 4 — technique: competition with immobilised ligand; tested at: 1 µM
SMILES: CN(C)CC#Cc1ccc(OCCCc2sc(N3CCc4cccc(C(=O)Nc5nc6ccccc6s5)c4C3)nc2C(=O)O)c(F)c1
MAP4K2 (Homo sapiens, UniProt Q12851); cell-free assay — remaining binding: 100%.
MAP2K1 (Homo sapiens, UniProt Q02750); cell-free assay — remaining binding: 100%.
It gave 86% for remaining binding (EGFR (Homo sapiens, UniProt P00533, del746-750); cell-free assay).
For NEK3 (Homo sapiens, UniProt P51956); cell-free assay: remaining binding read 100%.
The remaining binding was 100% (TAOK3 (Homo sapiens, UniProt Q9H2K8); cell-free assay).
It gave 100% for remaining binding (BMPR2 (Homo sapiens, UniProt Q13873); cell-free assay).
It gave 84% for remaining binding (ERN1 (Homo sapiens, UniProt O75460); cell-free assay).
It gave 9% for remaining binding (Aurora kinase C (AURKC, Homo sapiens, UniProt Q9UQB9); cell-free assay).
It gave 100% for remaining binding (EGFR (Homo sapiens, UniProt P00533, T790M); cell-free assay).
The remaining binding was 100% (MET (Homo sapiens, UniProt P08581, M1250T); cell-free assay).
It gave 100% for remaining binding (Ribosomal protein S6 kinase alpha-4, N-terminal kinase domain (RPS6KA4, Homo sapiens, UniProt O75676); cell-free assay).
The remaining binding was 99% (EPHA7 (Homo sapiens, UniProt Q15375); cell-free assay).
The remaining binding was 94% (EGFR (Homo sapiens, UniProt P00533, del747-750/T751S); cell-free assay).
It gave 90% for remaining binding (MAP3K3 (Homo sapiens, UniProt Q99759); cell-free assay).
It gave 97% for remaining binding (Ribosomal protein S6 kinase alpha-6, C-terminal kinase domain (RPS6KA6, Homo sapiens, UniProt Q9UK32); cell-free assay).
For TXK (Homo sapiens, UniProt P42681); binding: remaining binding read 100%.

Excerpt of the above (series 3):
The remaining activity was 95.2% (TEK (Homo sapiens, UniProt Q02763)).
TAOK2 (Homo sapiens, UniProt Q9UL54) — remaining activity: 87.6%.
The remaining activity was 96.8% (GSK3B (Homo sapiens, UniProt P49841)).
